Experimental data gathered from unrelated publications.
Compare with care: the assays were run in different laboratories. Numbers after ± are the reported error. In brackets after ≈: the same amount, converted by molar mass.
Organism: Plasmodium falciparum

| Structure (SMILES) | test | test system | conditions | how to read | measurement | result |
| --- | --- | --- | --- | --- | --- | --- |
| N#Cc1ccc(C2Sc3ccccc3NC3=C2C(=O)c2ccccc23)cc1 (racemic) | growth, [3H]hypoxanthine incorporation | Dd2 | – | – | EC50 | 270 nM |
| CC(C)N1CCCCC1C(=O)NC(Cc1ccc(-c2ccccc2)cc1)B(O)O (stereo not drawn) | parasite growth, flow cytometry | 3D7 | 72 h | – | LD50 | 11 nM |
| O=C1C2=C(Nc3ccccc3SC2c2ccc(F)cc2)c2ccccc21 (racemic) | – | Dd2 expressing yeast DHOD | added: 5 nM proguanil | reference: transgenic over parental Dd2 | fold resistance | 0.1 |
| N#Cc1c(-c2ccco2)[n+]([O-])c2ccc(Cl)cc2[n+]1[O-] | – | K1 chloroquine-resistant | – | reference: K1 IC50 over 3D7 IC50 | resistance index | 0.69 |
| C[C@H]1C(=O)O[C@@H]2O[C@@]3(C)CC[C@@H]4[C@@]2(OO3)[C@H]1CC[C@]4(C)O | parasite growth, SYBR Green I | Dd2 | – | – | MIC90 | 210 ± 27.6 nM (≈ 0.0626 µg/mL) |
| COC1=CC(c2ccc[nH]2)=NC1=CNC1CCCCCCC1 | – | HepG2, D6 | – | reference: HepG2 IC50 over D6 IC50 | selectivity index | 2020 |
| COc1ccc2nc3cc(Cl)ccc3c(NCCN3C(=O)c4ccc5c6c(ccc(c46)C3=O)C(=O)N(CCN(C)C)C5=O)c2c1 | parasite growth, SYBR Green I fluorescence | W2 over 3D7 | – | reference: IC50 W2 over IC50 3D7 | resistance index | 6.58 |
| N#Cc1c(-c2ccco2)[n+]([O-])c2ccccc2[n+]1[O-] | – | K1 chloroquine-resistant | – | reference: K1 IC50 over 3D7 IC50 | resistance index | 0.84 |
| CC(C)C1=CC(=CNC23CC4CC(CC(C4)C2)C3)N=C1c1ccc[nH]1 | parasite growth | Dd2, chloroquine-resistant | – | – | IC50 | 20 nM |
| CCC(C)C1NC(=O)C(Cc2ccccc2)NC(=O)C(CCCCCC(=O)C2CO2)NC(=O)C2CCCCN2C1=O (stereo not drawn) | flow cytometry | Dd2 | concentration not given, 48 h exposure | reference: DMSO control | time to full killing | 6 days |
| COC1=CC(c2ccc[nH]2)=NC1=CNC1CCCCCC1 | parasite growth | Dd2, chloroquine-resistant | – | – | IC50 | 34 nM |
| CC[C@H](C)[C@H](NC(=O)[C@@H](NC(=O)[C@H](Cc1ccc(O)cc1)NC(=O)[C@H](CCCCN)NC(=O)[C@H](CCCCN)NC(=O)[C@H](CC(C)C)NC(=O)[C@H](CC(=O)O)NC(=O)[C@H](Cc1ccc(O)cc1)NC(=O)[C@H](CCC(N)=O)NC(=O)[C@H](CCCCN)NC(=O)[C@@H](NC(=O)[C@H](Cc1ccccc1)NC(=O)[C@H](CCCCN)NC(=O)[C@H](CCCCN)NC(=O)[C@H](Cc1c[nH]c2ccccc12)NC(=O)[C@H](CCCCN)NC(=O)[C@H](CCSC)NC(=O)[C@H](CCCNC(=N)N)NC(=O)[C@H](CCCNC(=N)N)NC(=O)[C@H](CC(N)=O)NC(=O)[C@H](CCC(N)=O)NC(=O)[C@H](Cc1ccccc1)NC(=O)[C@H](Cc1c[nH]c2ccccc12)NC(=O)[C@@H](NC(=O)[C@H](CCCCN)NC(=O)[C@@H](NC(=O)[C@H](CCC(N)=O)NC(=O)[C@@H](N)CCCNC(=N)N)[C@@H](C)CC)[C@@H](C)CC)[C@@H](C)CC)[C@@H](C)CC)C(=O)O | – | 3D7 | 100 µM, 24 h, early trophozoite stage | reference: solvent control | growth inhibition | 90 to 95% |
| O=C1C2=C(Nc3ccccc3SC2C2CC2)c2ccccc21 (racemic) | growth, hypoxanthine uptake | Dd2 expressing yeast DHOD | – | – | EC50 | > 5000 nM |
| C1=CC(c2ccc[nH]2)=NC1=CNC1CCCCCC1 | parasite growth | Dd2, chloroquine-resistant | – | – | IC50 | > 2500 nM |
| COC(=O)C1=CO[C@@H](C)[C@@H]2Cn3ccc4c5ccccc5nc-4c3C[C@H]12 | parasite growth, [3H]-hypoxanthine incorporation | Dd2 multidrug-resistant | 48 h | reference: Dd2 over 3D7 | sensitivity fold increase | 8 fold |

For quick reference, copied from above:
| Structure (SMILES) | test | test system | conditions | how to read | measurement | result |
| --- | --- | --- | --- | --- | --- | --- |
| C1=CC(c2ccc[nH]2)=NC1=CNC1CCCCCC1 | parasite growth | Dd2, chloroquine-resistant | – | – | IC50 | > 2500 nM |
| CC(C)C1=CC(=CNC23CC4CC(CC(C4)C2)C3)N=C1c1ccc[nH]1 | parasite growth | Dd2, chloroquine-resistant | – | – | IC50 | 20 nM |
